Measurements of several laboratories.
Every numbered part comes from another study and shows a few of its results, in no order. Values joined by “and” are separate records of one study, mostly repeats; a detail may differ.
Chain of UniProt P10721 (whole entry, unmodified, looked up): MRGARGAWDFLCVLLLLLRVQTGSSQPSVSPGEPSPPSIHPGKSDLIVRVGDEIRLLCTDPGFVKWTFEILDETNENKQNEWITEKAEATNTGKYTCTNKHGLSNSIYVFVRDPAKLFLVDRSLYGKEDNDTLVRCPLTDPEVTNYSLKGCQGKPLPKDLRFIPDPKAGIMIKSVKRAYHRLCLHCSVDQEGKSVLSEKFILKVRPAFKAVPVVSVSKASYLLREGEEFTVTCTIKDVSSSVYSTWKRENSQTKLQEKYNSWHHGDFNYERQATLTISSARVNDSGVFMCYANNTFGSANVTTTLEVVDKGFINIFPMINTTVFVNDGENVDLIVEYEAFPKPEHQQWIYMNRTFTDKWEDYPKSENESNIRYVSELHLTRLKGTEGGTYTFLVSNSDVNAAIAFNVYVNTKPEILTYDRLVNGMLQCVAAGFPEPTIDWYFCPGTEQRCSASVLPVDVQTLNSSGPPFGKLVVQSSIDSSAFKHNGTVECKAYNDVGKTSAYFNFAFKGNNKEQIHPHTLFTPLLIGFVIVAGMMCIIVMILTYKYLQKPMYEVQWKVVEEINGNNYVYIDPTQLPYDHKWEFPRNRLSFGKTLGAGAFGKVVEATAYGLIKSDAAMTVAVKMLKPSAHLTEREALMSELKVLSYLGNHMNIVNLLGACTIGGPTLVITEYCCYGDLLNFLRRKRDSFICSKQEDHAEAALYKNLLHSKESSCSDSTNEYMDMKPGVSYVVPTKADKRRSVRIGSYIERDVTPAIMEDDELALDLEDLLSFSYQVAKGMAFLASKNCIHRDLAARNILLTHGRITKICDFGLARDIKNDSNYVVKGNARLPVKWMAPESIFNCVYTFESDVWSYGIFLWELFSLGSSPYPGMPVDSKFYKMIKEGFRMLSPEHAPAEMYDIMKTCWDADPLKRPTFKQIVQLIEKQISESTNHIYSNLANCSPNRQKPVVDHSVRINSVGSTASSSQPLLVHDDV
Chain of UniProt Q9BXA7 (whole entry, looked up): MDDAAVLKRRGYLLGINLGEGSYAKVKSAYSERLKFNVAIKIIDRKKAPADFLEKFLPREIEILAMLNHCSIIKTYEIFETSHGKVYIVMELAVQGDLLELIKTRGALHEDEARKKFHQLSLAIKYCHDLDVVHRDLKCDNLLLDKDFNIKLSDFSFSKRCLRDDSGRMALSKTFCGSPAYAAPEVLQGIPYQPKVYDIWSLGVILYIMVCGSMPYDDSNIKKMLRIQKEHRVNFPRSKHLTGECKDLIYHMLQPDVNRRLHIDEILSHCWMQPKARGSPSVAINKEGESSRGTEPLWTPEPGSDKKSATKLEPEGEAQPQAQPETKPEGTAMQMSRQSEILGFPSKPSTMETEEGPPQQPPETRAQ
Chain of UniProt P42336 (whole entry, unmodified, looked up): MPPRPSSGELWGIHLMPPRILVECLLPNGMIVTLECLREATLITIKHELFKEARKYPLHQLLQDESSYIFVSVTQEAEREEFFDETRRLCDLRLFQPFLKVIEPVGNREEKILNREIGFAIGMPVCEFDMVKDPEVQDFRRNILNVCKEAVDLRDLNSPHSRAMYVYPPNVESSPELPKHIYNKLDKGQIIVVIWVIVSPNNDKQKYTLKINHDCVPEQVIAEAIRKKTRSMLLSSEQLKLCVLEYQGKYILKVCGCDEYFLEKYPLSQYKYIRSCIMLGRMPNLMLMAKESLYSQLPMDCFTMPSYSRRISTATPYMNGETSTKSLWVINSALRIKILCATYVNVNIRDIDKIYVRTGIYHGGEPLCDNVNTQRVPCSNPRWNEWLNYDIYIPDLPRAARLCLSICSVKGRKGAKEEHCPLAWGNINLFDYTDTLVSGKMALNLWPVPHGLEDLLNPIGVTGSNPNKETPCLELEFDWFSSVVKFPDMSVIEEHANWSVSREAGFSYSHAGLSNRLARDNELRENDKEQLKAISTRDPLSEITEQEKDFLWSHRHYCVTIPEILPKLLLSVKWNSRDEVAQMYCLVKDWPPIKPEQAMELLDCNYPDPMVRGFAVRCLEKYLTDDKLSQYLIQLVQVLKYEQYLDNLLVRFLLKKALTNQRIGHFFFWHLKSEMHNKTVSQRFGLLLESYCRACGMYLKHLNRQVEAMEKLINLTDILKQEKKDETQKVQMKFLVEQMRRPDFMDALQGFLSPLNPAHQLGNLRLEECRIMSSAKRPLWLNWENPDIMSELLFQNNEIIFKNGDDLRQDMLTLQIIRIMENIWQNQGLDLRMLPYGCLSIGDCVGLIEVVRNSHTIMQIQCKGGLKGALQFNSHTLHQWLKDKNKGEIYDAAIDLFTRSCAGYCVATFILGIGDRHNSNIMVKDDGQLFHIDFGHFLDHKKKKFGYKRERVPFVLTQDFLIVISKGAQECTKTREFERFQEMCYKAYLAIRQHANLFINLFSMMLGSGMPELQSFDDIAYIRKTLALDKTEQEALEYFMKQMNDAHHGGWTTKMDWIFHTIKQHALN
Chain of UniProt P00519 (whole entry, unmodified, looked up): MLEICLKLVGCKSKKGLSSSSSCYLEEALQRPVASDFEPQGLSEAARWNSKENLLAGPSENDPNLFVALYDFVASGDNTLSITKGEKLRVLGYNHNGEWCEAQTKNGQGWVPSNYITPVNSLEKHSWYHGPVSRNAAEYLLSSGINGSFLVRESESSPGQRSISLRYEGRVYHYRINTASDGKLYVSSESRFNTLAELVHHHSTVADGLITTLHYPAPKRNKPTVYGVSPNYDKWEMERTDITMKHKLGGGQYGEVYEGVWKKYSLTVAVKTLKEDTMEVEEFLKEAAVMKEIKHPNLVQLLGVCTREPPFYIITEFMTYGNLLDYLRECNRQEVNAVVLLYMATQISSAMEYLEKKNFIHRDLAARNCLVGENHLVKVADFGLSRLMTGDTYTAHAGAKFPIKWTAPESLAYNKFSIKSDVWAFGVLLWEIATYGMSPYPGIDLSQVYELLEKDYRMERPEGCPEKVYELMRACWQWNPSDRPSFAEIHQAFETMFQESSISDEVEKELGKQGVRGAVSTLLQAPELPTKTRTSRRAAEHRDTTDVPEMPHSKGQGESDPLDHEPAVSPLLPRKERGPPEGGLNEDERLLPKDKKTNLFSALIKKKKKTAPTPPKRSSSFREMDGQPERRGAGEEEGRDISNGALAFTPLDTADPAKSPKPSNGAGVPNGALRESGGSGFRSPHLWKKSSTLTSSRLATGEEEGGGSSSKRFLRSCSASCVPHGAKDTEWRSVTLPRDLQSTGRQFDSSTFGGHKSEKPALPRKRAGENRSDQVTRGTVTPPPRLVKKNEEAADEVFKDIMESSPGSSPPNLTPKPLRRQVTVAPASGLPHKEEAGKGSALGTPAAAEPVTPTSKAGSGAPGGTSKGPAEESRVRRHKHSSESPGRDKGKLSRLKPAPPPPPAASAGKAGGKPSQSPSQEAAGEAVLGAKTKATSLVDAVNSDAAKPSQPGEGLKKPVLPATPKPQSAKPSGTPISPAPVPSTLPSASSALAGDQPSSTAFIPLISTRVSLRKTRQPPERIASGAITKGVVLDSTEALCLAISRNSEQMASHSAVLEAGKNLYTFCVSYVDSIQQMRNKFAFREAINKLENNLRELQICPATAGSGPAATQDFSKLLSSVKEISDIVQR
Chain of UniProt Q12852 (whole entry, looked up): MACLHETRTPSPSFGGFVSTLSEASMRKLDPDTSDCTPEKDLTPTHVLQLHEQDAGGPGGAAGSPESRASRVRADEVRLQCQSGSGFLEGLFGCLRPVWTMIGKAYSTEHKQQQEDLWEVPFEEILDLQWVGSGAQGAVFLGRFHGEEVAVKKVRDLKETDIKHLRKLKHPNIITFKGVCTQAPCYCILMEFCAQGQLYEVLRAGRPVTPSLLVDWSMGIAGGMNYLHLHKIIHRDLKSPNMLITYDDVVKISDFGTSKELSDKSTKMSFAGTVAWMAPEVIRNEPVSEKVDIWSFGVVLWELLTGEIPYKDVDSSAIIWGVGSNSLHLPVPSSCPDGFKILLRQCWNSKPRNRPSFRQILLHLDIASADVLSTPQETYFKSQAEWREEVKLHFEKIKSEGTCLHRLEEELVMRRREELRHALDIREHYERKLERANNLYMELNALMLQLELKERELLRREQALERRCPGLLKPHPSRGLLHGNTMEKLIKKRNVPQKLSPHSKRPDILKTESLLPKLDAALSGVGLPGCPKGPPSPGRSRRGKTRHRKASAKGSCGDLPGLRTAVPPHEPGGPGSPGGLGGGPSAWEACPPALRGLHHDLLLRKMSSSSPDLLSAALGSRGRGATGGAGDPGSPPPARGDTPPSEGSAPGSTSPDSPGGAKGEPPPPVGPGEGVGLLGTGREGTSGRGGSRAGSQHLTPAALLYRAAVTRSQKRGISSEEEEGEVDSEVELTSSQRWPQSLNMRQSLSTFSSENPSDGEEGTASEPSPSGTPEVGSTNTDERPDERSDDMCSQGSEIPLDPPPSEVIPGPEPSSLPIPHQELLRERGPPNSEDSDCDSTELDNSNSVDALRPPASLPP

Series 1
Structure (SMILES): CC(C)n1cnc(-c2ccc(F)cc2)c1-c1ncc(C(=O)Nc2ccc(N3CCN(C)CC3)cc2)[nH]1
Technique: phase 2a trial
Host: idiopathic pulmonary fibrosis patients
It gave 0% for “patients with increased interferon-gamma” (60 mg once daily, grade 4).
The “patients with increased interferon-gamma” was 0% (all dose arms pooled, grade 2).
It gave 0% for “patients with increased interferon-gamma” (60 mg once daily, grade 3).

Series 2
Host: human
Medium: microsomes or S9
Tested at: 2 µM
Time: 0.5 h
The remaining compound of `COC(=O)c1c(NCc2ccccc2C(F)(F)F)c2cccc(Cl)c2[nH]c1=O` is reported as 69%.
`Cc1c(CN2C[C@H]3CC[C@@H](C2)NC3)oc2ccccc12` gave a remaining compound of 95.5%.
`CC(C)S(=O)(=O)c1ccccc1C(=O)N1CC(C)(C)c2c(Cl)cccc21` gave a remaining compound of 32.1%.
With `CC(=O)c1cccc(NC(=O)CN(C)S(=O)(=O)c2c(C)cc(C)cc2C)c1` the remaining compound was 10.9%.
For `CN(C)CCN(Cc1ccncc1)Cc1c(F)cccc1Cl`, the remaining compound was 97.8%.

Series 3
Target: Calcium/calmodulin-dependent protein kinase type II subunit alpha (CAMK2A, Homo sapiens, UniProt Q9UQM7)
Chain of UniProt Q9UQM7 (whole entry, looked up): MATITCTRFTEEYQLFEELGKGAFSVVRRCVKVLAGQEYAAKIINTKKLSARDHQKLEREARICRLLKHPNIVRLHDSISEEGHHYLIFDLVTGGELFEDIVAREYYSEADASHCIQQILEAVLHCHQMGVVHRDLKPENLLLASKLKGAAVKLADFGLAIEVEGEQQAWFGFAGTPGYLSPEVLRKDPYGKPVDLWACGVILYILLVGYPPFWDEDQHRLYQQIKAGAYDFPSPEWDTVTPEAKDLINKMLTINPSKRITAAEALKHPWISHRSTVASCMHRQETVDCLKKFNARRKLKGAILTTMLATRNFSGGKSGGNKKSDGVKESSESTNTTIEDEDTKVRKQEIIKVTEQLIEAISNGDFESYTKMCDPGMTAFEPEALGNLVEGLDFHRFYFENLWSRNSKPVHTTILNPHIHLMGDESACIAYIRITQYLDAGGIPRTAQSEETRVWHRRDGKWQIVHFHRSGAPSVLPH
Observed: enzyme activity
Action: inhibitor
Tested at: 10 µM
For `C[C@H](O)C(=O)N[C@@H](Cc1ccccc1)C(=O)O`, the inhibition was -30%.
`C[C@H](CO[C@@H]1O[C@H](CO)[C@@H](O)[C@H](O)[C@H]1O)[C@H]1CC[C@@]2(CC[C@]3(C)[C@H](CC[C@@H]4[C@@]5(C)CC[C@H](O[C@@H]6O[C@H](CO)[C@@H](O)[C@H](O)[C@H]6O[C@@H]6OC[C@@H](O)[C@H](O)[C@H]6O)[C@@](C)(CO)[C@@H]5CC[C@]43C)[C@H]2O)CO1` gave an inhibition of -2%.
The inhibition of `COC(=O)CCc1ccccc1` is reported as -4%.
`O=c1[nH]c(=O)c2nccnc2[nH]1` has an inhibition of 15%.
For `CC(=O)O[C@H](C[C@@H](C)[C@H]1C(=O)[C@H](O)[C@@]2(C)[C@@H]3CC[C@H]4C(C)(C)[C@@H](O[C@@H]5OC[C@H](O)[C@H](O)[C@H]5O)CC[C@@]45C[C@@]35CC[C@]12C)[C@@H]1OC1(C)C`, the inhibition was -32%.

Series 4
SMILES: Cc1ccc(NC(=O)c2ccnc(C(F)(F)F)c2)cc1-c1cc(OCCO)nc(N2CCOCC2)c1
Technique: competitive binding panel
Tested at: 1 µM
Reference: vehicle
It gave 75% for remaining binding (Protein kinase C epsilon type (PRKCE, Homo sapiens, UniProt Q02156)).
Serine/threonine-protein kinase 32C (STK32C, Homo sapiens, UniProt Q86UX6); refers to: YANK3 — remaining binding: 100%.
For Testis-specific serine/threonine-protein kinase 1 (TSSK1B, Homo sapiens, UniProt Q9BXA7): remaining binding read 88%.
The remaining binding was 100% (Cyclin-dependent kinase 2 (CDK2, Homo sapiens, UniProt P24941)).

Series 5
Cell line: mouse MPNST tumor cells
Technique: high-content nuclear imaging
Refers to: cell number
Tested at: 10 µM
Time: 12 h
Setting: mean of 2 replicates
Reference: plate mean
Direction: higher = more cells
With `CN(C)C(=O)n1nnnc1Cc1ccc(-c2ccccc2)cc1` the nuclei count was -1.19 z-score.
`Cc1cc(C)c(C)c(S(=O)(=O)Nc2ccc(N3CC[C@H](C(=O)O)C3)c3ccccc23)c1C` gave a nuclei count of -2.17 z-score.
With `CCC1(c2ccccc2)C(=O)NCNC1=O` the nuclei count was 2.31 z-score and 2.27 z-score.
The nuclei count of `O=C(Nc1cc(-c2ccccc2)nn1-c1ccccc1F)c1ccc([N+](=O)[O-])cc1` is reported as 0.855 z-score.
For `NC(=O)c1cn(Cc2c(F)cccc2F)nn1`, the nuclei count was 4.17 z-score.

Series 6
Compound: CC(=O)N1CCC(c2ccc(C(=O)NC(=N)N)cc2C(F)(F)F)CC1
Tested at: 1 µM
The remaining binding was 96% (Mitogen-activated protein kinase 1 (MAPK1, Homo sapiens, UniProt P28482); cell-free assay, competition with immobilised ligand).
The remaining binding was 92% (Tyrosine-protein kinase ABL1, non-phosphorylated (ABL1, Homo sapiens, UniProt P00519, F317I); binding, competition with immobilised ligand).
For Serine/threonine-protein kinase MARK1 (MARK1, Homo sapiens, UniProt Q9P0L2); cell-free assay, competition with immobilised ligand: remaining binding read 100%.
The remaining binding was 100% (Phosphatidylinositol 3-kinase C2 domain-containing subunit gamma (PIK3C2G, Homo sapiens, UniProt O75747); cell-free assay, competition with immobilised ligand).
For Serine/threonine-protein kinase ULK2 (ULK2, Homo sapiens, UniProt Q8IYT8); cell-free assay, competition with immobilised ligand: remaining binding read 100%.
It gave 100% for remaining binding (Ephrin type-A receptor 4 (EPHA4, Homo sapiens, UniProt P54764); cell-free assay, competition with immobilised ligand).
For Phosphatidylinositol 5-phosphate 4-kinase type-2 gamma (PIP4K2C, Homo sapiens, UniProt Q8TBX8); cell-free assay, competition with immobilised ligand: remaining binding read 100%.
Serine/threonine-protein kinase Chk2 (CHEK2, Homo sapiens, UniProt O96017); cell-free assay, competition with immobilised ligand — remaining binding: 100%.
For Serine/threonine-protein kinase PLK4 (PLK4, Homo sapiens, UniProt O00444); cell-free assay, competition with immobilised ligand: remaining binding read 100%.
Phosphatidylinositol 4-phosphate 5-kinase type-1 gamma (PIP5K1C, Homo sapiens, UniProt O60331); cell-free assay, competition with immobilised ligand — remaining binding: 100%.
The remaining binding was 100% (Platelet-derived growth factor receptor alpha (PDGFRA, Homo sapiens, UniProt P16234); cell-free assay, competition with immobilised ligand).
For eIF-2-alpha kinase GCN2, C-terminal kinase domain (EIF2AK4, Homo sapiens, UniProt Q9P2K8, S808G); cell-free assay, competition with immobilised ligand: remaining binding read 73%.
Phosphatidylinositol 4,5-bisphosphate 3-kinase catalytic subunit alpha isoform (PIK3CA, Homo sapiens, UniProt P42336, I800L); cell-free assay, competition with immobilised ligand — remaining binding: 90%.
It gave 100% for remaining binding (Mitogen-activated protein kinase kinase kinase 12 (MAP3K12, Homo sapiens, UniProt Q12852); cell-free assay, competition with immobilised ligand).
The remaining binding was 100% (Mast/stem cell growth factor receptor Kit (KIT, Homo sapiens, UniProt P10721, V559D); cell-free assay, competition with immobilised ligand).
The remaining binding was 96% (ALK tyrosine kinase receptor (ALK, Homo sapiens, UniProt Q9UM73, L1196M); cell-free assay, competition with immobilised ligand).
For Mast/stem cell growth factor receptor Kit, autoinhibited (KIT, Homo sapiens, UniProt P10721); cell-free assay, competition with immobilised ligand: remaining binding read 95%.
It gave 98% for remaining binding (Rhodopsin kinase GRK1 (GRK1, Homo sapiens, UniProt Q15835); cell-free assay, competition with immobilised ligand).
The remaining binding was 97% (5'-AMP-activated protein kinase catalytic subunit alpha-1 (PRKAA1, Homo sapiens, UniProt Q13131); cell-free assay, competition with immobilised ligand).
Calcium/calmodulin-dependent protein kinase type II subunit gamma (CAMK2G, Homo sapiens, UniProt Q13555); cell-free assay, competition with immobilised ligand — remaining binding: 100%.
Tyrosine-protein kinase Fgr (FGR, Homo sapiens, UniProt P09769); cell-free assay, competition with immobilised ligand — remaining binding: 91%.
For Serine/threonine-protein kinase MRCK gamma (CDC42BPG, Homo sapiens, UniProt Q6DT37); competition binding: remaining binding read 92%.
The remaining binding was 94% (Cyclin-dependent kinase 18 (CDK18, Homo sapiens, UniProt Q07002); cell-free assay, competition with immobilised ligand).
For Insulin receptor (INSR, Homo sapiens, UniProt P06213); cell-free assay, competition with immobilised ligand: remaining binding read 100%.
The remaining binding was 100% (Casein kinase I isoform gamma-3 (CSNK1G3, Homo sapiens, UniProt Q9Y6M4); cell-free assay, competition with immobilised ligand).

Series 7
Cell line: HaCaT
Tested at: 100 µM
Time: 18 h
`Cc1cccc(Nc2ccncc2S(=O)(=O)NC(=O)NC(C)C)c1` has a viability of 96.6%.
For `C[C@]12C=CC(=O)N[C@@H]1CC[C@@H]1[C@@H]2CC[C@]2(C)[C@@H](C(=O)Nc3cc(C(F)(F)F)ccc3C(F)(F)F)CC[C@@H]12`, the viability was 112%.
The viability of `COc1cc2nccc(Oc3ccc(NC(=O)C4(C(=O)Nc5ccc(F)cc5)CC4)cc3)c2cc1OC` is reported as 60.5%.
`CC1(C)O[C@@H]2C[C@H]3[C@@H]4CCC5=CC(=O)C=C[C@]5(C)[C@@]4(F)[C@@H](O)C[C@]3(C)[C@]2(C(=O)CO)O1` gave a viability of 96.1%.

A few entries again (series 6):
For eIF-2-alpha kinase GCN2, C-terminal kinase domain (EIF2AK4, Homo sapiens, UniProt Q9P2K8, S808G); cell-free assay, competition with immobilised ligand: remaining binding read 73%.
Phosphatidylinositol 4,5-bisphosphate 3-kinase catalytic subunit alpha isoform (PIK3CA, Homo sapiens, UniProt P42336, I800L); cell-free assay, competition with immobilised ligand — remaining binding: 90%.
It gave 100% for remaining binding (Mitogen-activated protein kinase kinase kinase 12 (MAP3K12, Homo sapiens, UniProt Q12852); cell-free assay, competition with immobilised ligand).
The remaining binding was 100% (Mast/stem cell growth factor receptor Kit (KIT, Homo sapiens, UniProt P10721, V559D); cell-free assay, competition with immobilised ligand).
